Measurements gathered from unrelated publications.
Protocols differ between the studies behind these lines. ± gives the spread as reported.

For `CN[C@@H]1[C@H](O)[C@H](NC)[C@H]2O[C@]3(O)[C@H](O[C@@H]2[C@H]1O)O[C@H](C)C[C@@]3(O)CNCc1ccccc1`, the MIC was 13 µg/mL (Streptococcus pneumoniae; Daw27 drug resistant).
`N#Cc1ccc(-c2c[nH]c(CNC(=O)Nc3ncc(Sc4ccccn4)s3)n2)cc1` has an MIC of over 128 µM (Bifidobacterium breve; broth microdilution; ATCC 11863; without verapamil).
The MIC of `CC[C@H](C)[C@H](NC(=O)[C@H](CCCCN)NC(=O)[C@H](CC(N)=O)NC(=O)[C@H](CC(C)C)NC(=O)[C@H](Cc1ccccc1)NC(=O)[C@H](CCCCN)NC(=O)[C@H](CCCCNC(=N)N)NC(=O)[C@H](CC(C)C)NC(=O)[C@H](CC(C)C)NC(=O)[C@H](CCCCN)NC(=O)[C@H](CCCCNC(=N)N)NC(=O)[C@H](CC(C)C)NC(=O)CNC(C)=O)C(=O)N[C@@H](CCCCN)C(=O)N[C@@H](CCCCNC(=N)N)C(N)=O` is reported as 12.5 µM (Enterobacter aerogenes; broth microdilution; multidrug-resistant).
`CC(C)C[C@@H]1NC(=O)[C@H](C)NC(=O)[C@H](NC(=O)[C@H](CO)NC(=O)[C@@H](CCCCN)NC(=O)[C@@H](CC(C)C)N(C)C(=O)[C@@H](N)Cc2ccccc2)[C@H](C)OC(=O)[C@H](CC(C)C)NC1=O` has an MIC of over 32 µg/mL (Bacillus subtilis Staphylococcus epidermidis; ATCC 14990; tested as TFA salt).
`C[N+]1=C2C(c3ccc([N+](=O)[O-])cc3)=[N+]([O-])c3ccccc3N2CCC1` has an MIC of over 16 µg/mL (Cutibacterium acnes; microbial growth).
With `CC[C@H](C)[C@@H]1NC(=O)CNC(=O)[C@H](CCCCN)NC(=O)[C@H](C)NC(=O)[C@H](CCC(=O)O)NC(=O)[C@H](Cc2ccccc2)NC(=O)[C@H](CO)NC(=O)[C@H](CC(C)C)NC(=O)[C@H](C(C)C)NC(=O)[C@H](CC(=O)O)NC(=O)[C@@H](NC(=O)[C@@H](NC(=O)[C@@H](N)C(C)C)[C@@H](C)O)CSSC[C@@H]2NC(=O)[C@H](CO)NC(=O)CNC(=O)CNC(=O)[C@H](CCCCN)NC(=O)[C@H](CCCCN)NC(=O)[C@H](CCCNC(=N)N)NC(=O)[C@H](CC(C)C)NC(=O)[C@H](C)NC(=O)[C@H]([C@@H](C)CC)NC(=O)[C@@H]3CSSC[C@@H](C(=O)N[C@@H](CCCNC(=N)N)C(=O)N[C@@H](CC(N)=O)C(=O)O)NC(=O)[C@H](C(C)C)NC(=O)[C@H](CSSC[C@H](NC(=O)[C@H](C)NC(=O)[C@H](CO)NC(=O)[C@H](Cc4c[nH]cn4)NC(=O)[C@H](CC(N)=O)NC(=O)[C@H](C(C)C)NC(=O)[C@H](C)NC1=O)C(=O)N[C@@H](C)C(=O)N[C@@H](CC(C)C)C(=O)N[C@@H](Cc1c[nH]cn1)C(=O)N3)NC(=O)[C@H](C(C)C)NC(=O)CNC(=O)[C@H](CC(N)=O)NC(=O)[C@H](CCC(N)=O)NC2=O` the MIC was 10 µM (Trichosporon beigelii; broth microdilution; KCTC 7707; 28 °C).
`CN(Cc1cc(C2CC2)on1)C(=O)c1cccc(-c2ccc3c(c2)CCO3)c1` has an MIC of 4 µg/mL (Cryptococcus neoformans; broth microdilution; acl1∆ mutant, RPMI-MOPS).
For `CC[C@H](C)[C@H](NC(=O)[C@H](C)NC(=O)CNC(=O)[C@@H](N)CCSC)C(=O)N[C@@H](C)C(=O)N[C@@H](CCCCN)C(=O)N[C@@H](CC(C)C)C(=O)N[C@H](C(=O)N[C@@H](C)C(=O)N[C@@H](CCCCN)C(=O)N[C@@H](Cc1ccccc1)C(=O)NCC(=O)N[C@@H](Cc1c[nH]c2ccccc12)C(=O)N1CCC[C@H]1C(=O)N[C@@H](Cc1ccccc1)C(=O)N[C@H](C(=O)N[C@@H](CCCCN)C(=O)N[C@@H](CCCCN)C(=O)N[C@@H](Cc1ccccc1)C(=O)N[C@@H](Cc1ccc(O)cc1)C(=O)N[C@@H](CCCCN)C(=O)N[C@@H](CCC(N)=O)C(=O)N[C@H](C(=O)N[C@@H](CCSC)C(=O)N[C@@H](CCC(N)=O)C(=O)N[C@@H](Cc1ccccc1)C(=O)N[C@H](C(=O)NCC(=O)N[C@@H](CCC(N)=O)C(=O)NCC(=O)N[C@@H](Cc1c[nH]c2ccccc12)C(=O)N[C@H](C(=O)N[C@H](C(=O)N[C@@H](CC(=O)O)C(=O)N[C@@H](CCC(N)=O)C(=O)N[C@H](C(=O)N[C@@H](CCC(=O)O)C(=O)N[C@@H](CCCCN)C(=O)N[C@@H](Cc1c[nH]c2ccccc12)C(=O)N[C@@H](CC(C)C)C(=O)N[C@@H](CCCCN)C(=O)N[C@@H](CCCNC(=N)N)C(=O)N[C@@H](Cc1c[nH]cn1)C(=O)O)[C@@H](C)CC)[C@@H](C)CC)[C@@H](C)O)[C@@H](C)CC)[C@@H](C)CC)[C@@H](C)CC)C(C)C`, the MIC was 10.6 ± 0.1 µM (Bacillus subtilis subsp. subtilis; ATCC 23857; 10 h).
`[O-][N+]1=C(Cc2ccccc2)C2=NCCCN2c2ccccc21` gave an MIC of over 32 µg/mL (Cutibacterium acnes; microbial growth).
The MIC of `CC(C)Oc1ccc(B(O)O)c(F)n1` is reported as 8 µg/mL (Citrobacter freundii; bacterial growth; AmpC-overproducing clinical isolate; cefotaxime alone).
The MIC of `CC[C@H](C)[C@H](NC(=O)[C@H](CCCN)NC(=O)[C@H](CC(N)=O)NC(=O)[C@H](Cc1c[nH]c2ccccc12)NC(=O)[C@H](Cc1ccccc1)NC(=O)[C@H](CCCN)NC(=O)[C@H](CCCNC(=N)N)NC(=O)[C@H](CC(C)C)NC(=O)[C@H](Cc1c[nH]c2ccccc12)NC(=O)[C@H](CCCN)NC(=O)[C@H](CCCNC(=N)N)NC(=O)[C@H](CC(C)C)NC(=O)CNC(C)=O)C(=O)N[C@@H](CCCN)C(=O)N[C@@H](CCCNC(=N)N)C(N)=O` is reported as 3.12 µM (Citrobacter freundii; bacterial growth, broth microdilution; multidrug-resistant).
With `CC[C@H](C)[C@H](NC(=O)[C@@H](Cc1ccccc1)NC)C(=O)N[C@@H](CO)C(=O)N[C@H](CCCNC(=N)N)C(=O)N[C@@H](C(=O)N[C@H](C(=O)N[C@@H](CO)C(=O)N[C@H]1C(=O)N[C@@H](C)C(=O)N[C@@H](CC(C)C)C(=O)N[C@@H]([C@@H](C)CC)C(=O)O[C@H]1C)[C@@H](C)CC)[C@@H](C)CC` the MIC was 0.0078 to 2 µg/mL (Gram-positive bacteria; 0.002% polysorbate 80; range over five species).
For `COc1cc(O)c2c(=O)c3c(O)c(-c4c(C)cc5c(c4O)C(=O)C4=C(O)C[C@H](OC)[C@@H](O)[C@]4(C)O5)c(C)cc3oc2c1OC`, the MIC was over 82.4 µM (Alternaria brassicicola; microbial growth; BCC).
`CC(C)c1ccc(Cn2ccc([C@H](C)[C@](O)(Cn3cnnn3)c3ccc(F)cc3F)n2)cc1` gave an MIC of 8 µg/mL (Candidozyma auris; growth; 888 drug-resistant isolate; 24 h, 30 °C, ≥50% inhibition).
`[O-][N+]1=C(c2ccccc2)C2=NCCN2c2ccccc21` has an MIC of 16 µg/mL (Cutibacterium acnes; microbial growth).
The MIC of `C[C@@H](c1ccn(Cc2ccc(I)cc2)n1)[C@](O)(Cn1cnnn1)c1ccc(F)cc1F` is reported as 0.125 µg/mL (Candidozyma auris; growth; 789 drug-resistant isolate; 24 h, 30 °C, ≥50% inhibition).
The MIC of `CC(=O)OC1C(C)C(OC2CC3OCOC3C(C)O2)C=COC2(C)Oc3c(C)c(O)c4c(c3C2=O)C(=O)C=C(NC(=O)C(C)=CC=CC(C(C)OC(=O)C(C)(C)CC(=O)O)C(O)C(C)C(O)C1C)C4=O` (centres unmarked) is reported as about 1 µg/mL (Staphylococcus and Streptococcus pyogenes).
